Measurements pooled from the literature.
Parts stem from different laboratories: compare values within a part only.

Set 1 — technique: RNA Bind-n-Seq; molecule type: RNA; sample: in vitro; tested at: 20 nM; setting: 6-mer, flanks averaged, single round; added: 150 mM KCl; relative to: input library; direction: higher = stronger binding
Target: TAR DNA-binding protein 43, full length, His tag (TARDBP, Homo sapiens, UniProt Q13148, residues 1-414)
| Oligonucleotide | 6-mer enrichment (R) |
| --- | --- |
| AGCGCG | 1.58 |
| GUCUAC | 0.621 |
| UACUGC | 0.627 |
| AGAGGC | 1.57 |
| UGCGGA | 1.47 |
| AUCCUA | 0.55 |
| UACUCU | 0.549 |
| GCAUAC | 0.679 |
| UCAGUC | 0.587 |

Set 2 — organism: Saccharomyces cerevisiae; observed: binding; technique: yeast competitive growth sequencing; molecule type: peptide; strain: cyclin D1-Cln2 strain; sample: peptide tiling library; direction: direction not given
| Molecule | enrichment score |
| --- | --- |
| ATNSSHTDAHEILVSD | 1.59 |
| NSMKELNFSHLPSNSV | 1.4 |
| GTPKRCLDLSNLSSGE | -0.374 |

Set 3 — technique: protein-binding microarray; molecule type: double-stranded DNA, one strand shown; sample: in vitro; tested at: 250 nM; setting: 60-bp whole probe; added: salmon DNA 0.4 mg/ml; relative to: random background probes; direction: higher = stronger binding; shared flanks, not repeated: GCCTAGCAC … GTCTTGATTCGCTTGACGCTGCTG
Target: Interferon regulatory factor 5, full length, phosphomimetic (IRF5, Homo sapiens, UniProt Q13568-2, residues 1-514, K96S/S451D/S453D/S456D/S462D)
| Oligonucleotide | log fluorescence [z-score] |
| --- | --- |
| TTAGGACTGGGACTGGGTAAGTGCTAG | -0.802 |
| TCTTTTTGCACTCTCTACATGTGCTAG | 0.967 |
| GACGAACTGGGGTATCAAGACGTGCTA | -0.473 |
| ACCTGTTCCCTCATCAGGCTGTGCTAG | -0.148 |
| GACGAACTCGGGACTGGAGACGTGCTA | -0.172 |
| GACGGTTTCCTTCTCCGGACGTGCTAG | 0.717 |
| GAGGGACTGGACTTTCGGGACGTGCTA | 4.13 |
| GCCATTGTGGATCTTGCAGAGTGCTAG | -0.225 |
| TTAGAACAGGGGTTTCGATTAGTGCTA | 6.13 |
| TGAGGTTTCGGTTTCGGTTAGTGCTAG | 11.7 |

Single results of other studies
| Substance | target | assay | test system | conditions | scale | measurement | value |
| --- | --- | --- | --- | --- | --- | --- | --- |
| PhoQ, residues 284 288 289 292 302 303 SLSVQF | PhoP, residues 12 14 15 18 19 LHHSG (Escherichia coli, UniProt P23836) | Sort-seq, refers to: YFP reporter | E. coli | PhoQ-PhoP variant library, added: 10 µM Mg2+ | relative to: high Mg2+ state, higher = stronger signaling | fold induction | 3.96 |

A few entries again (set 3):
| Oligonucleotide | log fluorescence [z-score] |
| --- | --- |
| TCTTTTTGCACTCTCTACATGTGCTAG | 0.967 |
